Published values gathered from unrelated publications.
Each numbered part is a random draw from the data of one study; scales do not carry over between parts. Changes are numbered by the printed parent chain.

Set 1 — technique: RNA Bind-n-Seq; form: RNA; sample: in vitro; concentration: not given; baseline: input RNA pool; direction: higher = stronger binding
Target: RING finger protein unkempt homolog, zinc fingers 1-6, GST-SBP tag (UNK, Homo sapiens, UniProt Q9C0B0, residues 30-357)
Notes: RNA with constant flanks, human and mouse sites, ends assumed
Constant ends, left off below: GGGAGUUCUACAGUCCGACGAUC … CAACAGAGGAUUGAGCAUCA
Target sequence (chain): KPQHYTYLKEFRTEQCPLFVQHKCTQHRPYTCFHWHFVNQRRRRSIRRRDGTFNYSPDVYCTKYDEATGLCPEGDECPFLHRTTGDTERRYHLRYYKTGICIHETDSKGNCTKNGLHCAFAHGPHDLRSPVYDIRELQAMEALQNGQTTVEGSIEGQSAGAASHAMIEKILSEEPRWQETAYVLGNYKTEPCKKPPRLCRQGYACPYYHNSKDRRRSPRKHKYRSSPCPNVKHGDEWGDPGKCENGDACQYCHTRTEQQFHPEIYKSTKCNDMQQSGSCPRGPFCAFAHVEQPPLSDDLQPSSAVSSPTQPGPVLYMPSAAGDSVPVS
| Oligonucleotide | bound/input enrichment |
| --- | --- |
| GGGGGCCACGGGGAAGAUAGGCCGGAGCCCUUAAGCCCCAAAGAGAGCAAGAAGAGGAAGCUGGAGCUGAGCCGGCGGGAGCAGCCGCCCACAGAGCCAGGCCCUCAGAGUGCCUCAGAG | 0.305 ratio |
| CUGUAAUUUCAAUUUUUUUUUUUUGCUGAAAUACAUUAUAUUGUACGUUUGAGAUAAUUCUAGUACAAAGUAUAAUAAAACUAGAUGUAUAAUAAACCCUUUAAAUCAUUGGUAAGUGUA | 1.28 ratio |
| GAUAGAUUGACGUGUAGAGACUGUCAACUUUUGGAGCACAAAGAACAUAGGUAUCAGUUUUUAGAAGAGGCUUUUCAAAAUCAGAAAGGUGCAAUUGAAAAUCUGUUGGCUAAGCUUCUU | 0.915 ratio |
| AAUGGGAAAACGGUAUAUGCACCAUCCCCAAAUUCAGAUGAUUUCAACCGUGAAUCUCCUAGUUAUCCAUCUCCUAAGCCACCAACCAGUAUGUUCGCUAGCACUUUCUUUAUGCAAGAU | 2 ratio |
| UCCUGAAGCUUUGUGUUUGGCUGCACCUGCAUAAGCUGCUACAAAUAGAAUAAAGAAUUUCAUAGCCUGUAUCUAUCAUUUAGAUGCAUGGAAAAAAAUGGGCUUUGCACACAAUGGGUU | 7.1 ratio |
| CCUGGGCUCAAAGUUGGCCCUGUUCCAGUAUUGGUUAUGAGUCUUCUGUUCAUCGCUUCUGUAUUUAUGUUGCACAUUUGGGGCAAGUACACUCGUUCGUAGAUUCAGUUACAUCCAUCU | 0.311 ratio |
| UUUGAGGAAGGUGUGGGGAAGCCCGCCAAGCAGCUGCAGGACCUCCGGAACGCAUCCCGGCUCCUGCGGGUGAAUCCCGAGAGCACGACUUCUGUGGUCUGAGGCUCUGCUCUGUGUCUU | 0.0372 ratio |

Set 2 — target: CCNE2, cyclin fold, Cln2 fusion (human); technique: yeast growth competition, sequencing; sample: yeast; notes: weak parent motif; baseline: not given; direction: higher = stronger binding
Parent: ORC1 docking peptide (human); PRARKRLELGNLG; partner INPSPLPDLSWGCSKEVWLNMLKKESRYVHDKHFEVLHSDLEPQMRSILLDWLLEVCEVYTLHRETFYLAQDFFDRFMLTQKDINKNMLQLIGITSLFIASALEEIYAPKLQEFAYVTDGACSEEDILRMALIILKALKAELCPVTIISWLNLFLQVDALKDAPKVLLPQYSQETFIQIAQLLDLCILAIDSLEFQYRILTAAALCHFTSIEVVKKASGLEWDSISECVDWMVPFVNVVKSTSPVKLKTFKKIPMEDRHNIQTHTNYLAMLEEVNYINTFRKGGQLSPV
| Variant | normalised enrichment score |
| --- | --- |
| VRARKRLELGNLG [P1V] | -0.114 |
| PRARKRLELGELG [N11E] | -0.53 |
| PRARKRIELGNLG [L7I] | 1.09 |
| PRPRKRLELGNLG [A3P] | 0.965 |
| PRARKRLELGNLI [G13I] | 1.09 |
| PRAKKRLELGNLG [R4K] | -0.24 |
| PRARKRLELGNKG [L12K] | 0.785 |

Set 3 — technique: DHFR PCA, deep sequencing; sample: yeast; with: (+)-ABA 0.11 µM; baseline: wild-type fitted maximum; direction: higher = stronger binding
Target: ABI1, truncated, D143A, DHFR fusion (Arabidopsis thaliana)
Notes: methotrexate growth selection, single substitutions
Parent: PYL1, truncated, DHFR fusion (Arabidopsis thaliana); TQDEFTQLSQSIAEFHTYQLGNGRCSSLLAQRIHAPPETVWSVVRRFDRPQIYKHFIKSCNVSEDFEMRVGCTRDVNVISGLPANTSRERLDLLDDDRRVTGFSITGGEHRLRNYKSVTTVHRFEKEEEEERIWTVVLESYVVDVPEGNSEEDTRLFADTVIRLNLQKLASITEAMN; partner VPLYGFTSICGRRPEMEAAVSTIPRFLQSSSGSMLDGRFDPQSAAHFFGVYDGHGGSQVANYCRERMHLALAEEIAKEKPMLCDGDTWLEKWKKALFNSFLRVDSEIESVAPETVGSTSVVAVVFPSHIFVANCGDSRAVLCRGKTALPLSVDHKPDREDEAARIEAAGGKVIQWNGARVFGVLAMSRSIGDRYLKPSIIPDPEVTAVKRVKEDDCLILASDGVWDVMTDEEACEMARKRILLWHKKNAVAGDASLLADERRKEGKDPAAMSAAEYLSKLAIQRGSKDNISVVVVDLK
| Variant | relative binding score [%] |
| --- | --- |
| S11Q | 34.9 |
| T119F | -6.24 |
| K54I | -1.88 |
| Y115Q | -8.37 |
| Q31N | 4.86 |
| P83G | 57.3 |
| V137C | -7.5 |
| K58H | 13.1 |
| N61W | 20.8 |
| K126S | 68.5 |

Further values, each from its own experiment
| Substance | target | assay | system | setting | scale | measurement | result |
| --- | --- | --- | --- | --- | --- | --- | --- |
| PhoQ, residues 284 288 289 292 302 303 SLKLQV | PhoP, residues 12 14 15 18 19 VQGLL (Escherichia coli, UniProt P23836) | Sort-seq, refers to: YFP reporter | E. coli | PhoQ-PhoP variant library, with: 10 µM Mg2+ | baseline: high Mg2+ state, higher = stronger signaling | fold induction | 10.2 |

Repeated from above (set 3):
| Variant | relative binding score [%] |
| --- | --- |
| S11Q | 34.9 |
| T119F | -6.24 |
| K54I | -1.88 |
